Results of several laboratories.
Numbered parts are unrelated; each lists some results of a single study. Positions count from the first letter of the parent shown.

Sample 1
Target: RING finger protein unkempt homolog, zinc fingers 1-6, GST-SBP tag (UNK, Homo sapiens, UniProt Q9C0B0, residues 30-357)
UniProt Q9C0B0, sequence (30-357, looked up): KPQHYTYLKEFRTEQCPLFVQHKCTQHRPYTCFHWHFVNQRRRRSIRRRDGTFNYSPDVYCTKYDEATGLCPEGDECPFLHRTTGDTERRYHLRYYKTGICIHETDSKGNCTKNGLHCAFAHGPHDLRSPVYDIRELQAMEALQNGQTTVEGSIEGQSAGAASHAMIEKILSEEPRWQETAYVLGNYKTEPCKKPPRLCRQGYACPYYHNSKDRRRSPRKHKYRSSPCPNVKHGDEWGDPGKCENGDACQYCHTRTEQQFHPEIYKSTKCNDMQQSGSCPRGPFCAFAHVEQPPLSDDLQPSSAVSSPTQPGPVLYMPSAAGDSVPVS
Method: RNA Bind-n-Seq
Molecule type: RNA
Matrix: in vitro
Concentration: not given
Setting: RNA with constant flanks, human and mouse sites, ends assumed
Relative to: input RNA pool
Reading: higher = stronger binding
Constant ends, left off below: GGGAGUUCUACAGUCCGACGAUC … CAACAGAGGAUUGAGCAUCA
| Sequence | bound/input enrichment |
| --- | --- |
| UAUUUAACGACAUAUCCAUGAGAGGAAGGGAUAACAGAUAGUGUGUGCUUGCCUCUGAAAAGUCUCCAUUUUCAGCAGCUUCAAUGGCUUUCUGUGCAAUAUAGUUCCUCAGGACGUACU | 0.32 ratio |
| UACACAGUAUUGUUCUUGUAAAACUGUGACAUUCCACAGAGCUACUGCCACAAUCCUUUCUUAGGGUGUCAGGCUCUGAAUCUCUCCAAAUGUGCUGUCUUUGGUUCCUCAUGGCUAUUC | 0.168 ratio |
| GGGGUCCUCUAUCAUAUUUCAAAUCCUAAUGGAGACAAAACAAAAGUGAUGGUCAGUAUUUCUUUGAAAUUCUACAAGGAACUUCAGGCACAUGGUGCUGAUGAGUUAUUAAAGAGGGUG | 0.416 ratio |
| UGCAACCUGGACGCCAUCAAGGUCUACUGCAACAUGGAGACAGGUCAGACCUGUGUGUUCCCUACUCAGCCGUCUGUGCCUCAGAAGAACUGGUACAUCAGCCCGAACCCCAAGGAAAAG | 0.171 ratio |
| GGUUUGCAAAUUUUUUUUAAAUGCAAUCUUUUUAUUUUUCUACUUGGUUUUGGUUAUAAUCAUAGAAAGCAAGAAACUAUUAUUGAAAUUAAUGUUUUCUUCUGAUAUAAUAAUGGAAGC | 0.818 ratio |
| GAGGAAAUGAGUCUCAACCAGAAAGCCAGGAAGACCCUCGGGAAGUACUUAAAAAAACAUUGGAAUUCUGCUUAUCUAGGGAGAAUCUUGCUAGCGACAUGUACCUUAUAUCCCAGAUGG | 0.321 ratio |
| UACUUCUGGAUUCCAGGAAAAAUUCUUAUAACUAAAAUCAAUAUGUUUUAAAAGUCACCAUAUAGCUUCUUACUAGUUAUCUUUUAAAGACUGUGGUGGUCUUAAAAGGGAACAAAAGCU | 3.19 ratio |
| CUUUGUGGGCAGCGAGACCAUGCCUCCAACAUCUACAAGGUGGAGGGCGGCUGCAUCACCAAGUUGGAGACCUUCAUCCAGGAGCACCUGAGGGUCAUUGGGGCUGUGGGGAUCGGCAUU | 0.107 ratio |
| AUCUAAGAUCCUUCAGCGCCCAGUCCUGUGAUCUCCCUUGGCUAAUAACGAACUGUAAGGAUGCCAGCAGCUCAUGAAGAAAGGGAGACUUCCAAAAGAGCCUGCGUUGUUUGAUUCAGC | 0.116 ratio |
| UACCUGGACAAAGCACCUCCACCGGGCCUGCCGGUUGAGACCAUUAAGGAUCUAAUGCGUCAGUUUCUAAGCGGCCUGGAUUUUCUUCAUGCAAACUGCAUUGUUCACCGGGACCUGAAG | 0.204 ratio |
| GAAAUGGAAGAUGCACACACAGCUGUUGUAGGUAUUCCUCACGGCUUGGAAGACUGGUCAUUUUUUGCAGUUUAUGAUGGUCAUGCUGGAUCCCGAGUGGCAAAUUACUGCUCAACACAU | 0.228 ratio |

Sample 2
Target: Histone acetyltransferase KAT6A, both winged helices, GST fusion (KAT6A, Homo sapiens, UniProt Q92794, residues 1-181)
Method: protein binding microarray
Molecule type: double-stranded DNA, one strand shown
Matrix: in vitro
Concentration: not given
Setting: 8-mer, flanks averaged, mean of 2 arrays, mostly near background
Relative to: not given
Reading: higher = stronger binding
Residues (chain): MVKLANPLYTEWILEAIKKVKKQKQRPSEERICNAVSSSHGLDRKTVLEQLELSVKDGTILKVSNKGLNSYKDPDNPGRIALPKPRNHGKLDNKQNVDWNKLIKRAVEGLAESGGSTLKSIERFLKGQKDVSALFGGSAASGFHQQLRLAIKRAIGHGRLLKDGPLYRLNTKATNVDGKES
| Sequence | E-score |
| --- | --- |
| AAGGTGCG | 0.088 |
| CTTAATTC | -0.176 |
| ACATGGAA | -0.127 |
| CTCAGGTA | -0.269 |
| CTTTTCCA | -0.103 |
| ATCGGACC | 0.109 |
| CTGAGGCA | -0.0799 |
| AATACCTG | -0.203 |
| AAAGCCTC | -0.233 |
| ATAGCTAG | -0.116 |
| TCGCTAGA | -0.0253 |
| AAAGTGCT | -0.103 |
| CTAGAGAG | -0.242 |
| ACATTTGC | -0.0561 |
| AATACTGC | -0.0657 |
| AAAGTTAC | -0.0779 |
| CGGCAATA | 0.22 |
| CGTTGACC | 0.043 |
| CATACCGC | 0.276 |
| GAAGGACA | 0.00732 |
| TCTTTTCA | 0.0218 |
| CTGCTGTA | -0.0867 |
| ATCAGCCA | -0.177 |
| CTCTGCCC | -0.176 |
| CGGGGAAG | 0.186 |

Sample 3
Target: Sal-like protein 4, full length isoform A (SALL4, Homo sapiens, UniProt Q9UJQ4, residues 1-1053)
UniProt Q9UJQ4, sequence (whole entry, looked up): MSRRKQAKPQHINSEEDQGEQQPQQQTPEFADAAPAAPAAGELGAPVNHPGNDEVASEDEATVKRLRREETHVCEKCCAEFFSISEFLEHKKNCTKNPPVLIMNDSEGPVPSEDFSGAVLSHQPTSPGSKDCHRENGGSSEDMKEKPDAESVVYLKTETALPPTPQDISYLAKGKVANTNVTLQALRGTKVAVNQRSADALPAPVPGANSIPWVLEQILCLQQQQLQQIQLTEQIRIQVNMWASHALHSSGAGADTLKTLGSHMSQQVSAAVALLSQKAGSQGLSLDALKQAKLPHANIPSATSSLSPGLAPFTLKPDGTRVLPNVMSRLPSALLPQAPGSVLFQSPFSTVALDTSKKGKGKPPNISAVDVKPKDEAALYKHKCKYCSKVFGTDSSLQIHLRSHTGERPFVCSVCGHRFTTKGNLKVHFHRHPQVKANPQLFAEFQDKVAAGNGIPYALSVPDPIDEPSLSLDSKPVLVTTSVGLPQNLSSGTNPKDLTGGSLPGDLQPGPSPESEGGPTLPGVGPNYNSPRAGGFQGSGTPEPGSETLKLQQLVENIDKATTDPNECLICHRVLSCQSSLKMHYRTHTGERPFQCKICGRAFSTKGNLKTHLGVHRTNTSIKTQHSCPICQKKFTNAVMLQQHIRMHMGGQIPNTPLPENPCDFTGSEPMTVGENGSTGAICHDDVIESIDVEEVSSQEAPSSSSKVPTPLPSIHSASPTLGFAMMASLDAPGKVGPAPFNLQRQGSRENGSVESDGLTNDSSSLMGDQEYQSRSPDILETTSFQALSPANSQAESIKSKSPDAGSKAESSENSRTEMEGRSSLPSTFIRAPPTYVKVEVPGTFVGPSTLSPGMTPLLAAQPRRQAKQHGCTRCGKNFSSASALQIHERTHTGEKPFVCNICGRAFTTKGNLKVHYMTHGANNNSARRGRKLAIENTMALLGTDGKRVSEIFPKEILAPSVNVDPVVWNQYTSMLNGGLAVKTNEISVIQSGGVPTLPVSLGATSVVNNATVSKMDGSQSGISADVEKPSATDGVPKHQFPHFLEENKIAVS
Method: universal PBM
Molecule type: double-stranded DNA, one strand shown
Matrix: in vitro
Concentration: 600 nM
Setting: 8-mer, flanks averaged, mean of replicates
Reading: higher = stronger binding
| Sequence | E-score |
| --- | --- |
| CACAGCGA | -0.0836 |
| ATTTTGAC | 0.24 |
| CTTCTTAC | -0.119 |
| AATTATGC | 0.361 |
| ATGTTTAC | 0.172 |
| GGCTAGCC | -0.347 |
| TATTAGCA | 0.246 |
| CTATCCAC | -0.0011 |
| ACCTGATC | -0.011 |
| ATCCCAGA | -0.123 |
| GGGAGACC | -0.342 |
| GCATGTCA | 0.0559 |
| CATCTCTA | 0.112 |
| ACATTTGG | -0.0162 |
| CCACTGAA | -0.000765 |
| ACACACCC | -0.123 |
| CTTTCTGA | 0.15 |
| AACCGTAT | -0.0622 |
| CCCAACGG | -0.28 |
| ATTAATGA | 0.375 |
| AATCTAAT | 0.223 |
| CACTGCCC | -0.251 |
| ATATGGGA | 0.213 |

Sample 4
Target: CCNB2, cyclin fold, Cln2 fusion (human)
Method: yeast growth competition, sequencing
Matrix: yeast
Setting: strong parent motif
Relative to: not given
Reading: higher = stronger binding
Parent: MICAL3 docking peptide (human); LQLRRQLSFSEDS
| Substitution | normalised enrichment score |
| --- | --- |
| L7R | 0.0421 |
| R4C | 2.44 |
| S8P | 0.249 |
| E11G | 2.08 |
| Q6H | 2.82 |
| L3D | 0.145 |
| L7I | 1.89 |
| Q6A | 3.11 |
| S8V | 1.29 |
| R4T | 0.166 |
| D12K | 2 |
| E11Y | 1.71 |
| F9R | 1.11 |
| Q2K | 3.59 |

Sample 5
Target: RNA binding protein fox-1 homolog 2, RRM domain, GST-SBP tag (RBFOX2, Homo sapiens, UniProt O43251-10, residues 100-194)
Method: RNA Bind-n-Seq
Molecule type: RNA
Matrix: in vitro
Concentration: 365 nM
Setting: natural RNA segment, single round, ends assumed
Relative to: no-protein control
Reading: higher = stronger binding
Constant ends, left off below: GGGAGUUCUACAGUCCGACGAUC … UGGAAUUCUCGGGUGCCAA
Construct (chain): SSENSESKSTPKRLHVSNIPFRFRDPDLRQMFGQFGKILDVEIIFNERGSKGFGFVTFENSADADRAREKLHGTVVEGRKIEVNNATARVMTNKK
| Sequence | RBNS enrichment (R) |
| --- | --- |
| ACAGGGUUGAGUUGCAAAAGCCACAGCUCUUUGUUCUGUGUGCACUUUCUUGGAGAACCCCAUUGUGCACCCUGAGUUCUGCCUGUGCUUCGGCUGAUCCCAUAUUGGAC | 0.354 |
| CACUGCACAGCAAUUCACGGCCAGUGAAUGUUACACACAUCUUGCUAGACUAGUAUAAAAAUCAUUGGGUAAUUGUUGGUUCUAAUGACCUGAAAGGUGUUCAGUUUGUG | 0.313 |
| CGCUCCGUUUGGGGUGACCUGGAACGCCUCUUCUCCCAGCUCCCUCCAGCCAUCAGCAGCCUCUUGUCAAGCUUCUGCCUCGCCCCAGUCUAUCCCCAACCCCAAAUCAA | 0.536 |
| AGCUCUGGGGCUGGCUGUCCUCCGCUCUGCGCCUGUCAGGCAGGGCACGUGCUCACAGCCCUGGGUUGAUUUAUUUUUUUAAGGGGGGUAGUUUUAUUUUGGUGGGGCUG | 4.13 |
| GAAAGGACCCCCUCCUUAUGGAUUGCCUUGGCUUUGACCCUGAGCUAAGGCUGGCCCUAUUCCAUCCUUCUUCCUAGAUGAUGGGUGUGUUAAUGGGAGGAAGGAAAGAG | 0.434 |
| UCUUCUUUUUAAAAAGAAAAUAGAGAAUAGCAAAUCUUCAUGAUAAUCCUCAAAAGAACAAAAUGCUUAACUUUAUCUCUUAAUUUCUAAAGGUAAAUAACCUAGGUUCA | 0.327 |
| GAAGCUCUAGCUUAGCCUUCUCAGUAAGGUGUAAGAAGCUGGUGUUGCUGUGUAGUGUUAAUUUAUUCUGAGGAUGUGUGGCAAGCGCCUGGCACUGGGUAAAUGUAUAG | 0.743 |
| GCUGCACGUAUGCAGUAUCCUAUCUCUUUCUACAUCAGAUCAAAACACUAAGUUGGUGUACUGCCUCGACCUUUUUUCAGCUCAUCCUGGAACAUAUACAGAGUUGAGAG | 0.418 |
| AACCCUUUCAAGGAUAAAAAAACUUGCAUCAUCUUAUAGUGGAAUAGAGAAACAGCUCCUCGCCUCUUCCCAACAACGCAAAUUAUGAGCAGCUCCUUGAAGAGAUUUAC | 0.399 |
| ACCUGCCUUUGCCACUACAUAGGCUGCCUCUGGGCUGUUGGAAGCUCUUCAGUGAGCCUAAGUCUUGGGAACUCAGCAGGCGGCACCUUCUCACACAGCAAGUCCGAGCU | 0.418 |
| UUUCAGCUUAUGGGUAUUUAUCUUCUAUUAGUAUUUGUAUCUUCAGUUCAUUCCACUUUAGGAAACAGAGCUGCCAAUUGAAACAGAAGAAGAAAAAAAAAAAAAGCAGC | 0.678 |
| UGAAAAAGUACCCUCUUUUUCAUUUCCUAUUGCAGUGGUCACAGCUAAUAGUGUCUGAACAUGGUUCAAGAAUAAGAGAUUCCAUGUAGCAUUUUCUUUAUUAUUUUCAU | 1.18 |

A few entries again (sample 1):
| Sequence | bound/input enrichment |
| --- | --- |
| GGGGUCCUCUAUCAUAUUUCAAAUCCUAAUGGAGACAAAACAAAAGUGAUGGUCAGUAUUUCUUUGAAAUUCUACAAGGAACUUCAGGCACAUGGUGCUGAUGAGUUAUUAAAGAGGGUG | 0.416 ratio |
| UGCAACCUGGACGCCAUCAAGGUCUACUGCAACAUGGAGACAGGUCAGACCUGUGUGUUCCCUACUCAGCCGUCUGUGCCUCAGAAGAACUGGUACAUCAGCCCGAACCCCAAGGAAAAG | 0.171 ratio |
| GGUUUGCAAAUUUUUUUUAAAUGCAAUCUUUUUAUUUUUCUACUUGGUUUUGGUUAUAAUCAUAGAAAGCAAGAAACUAUUAUUGAAAUUAAUGUUUUCUUCUGAUAUAAUAAUGGAAGC | 0.818 ratio |
| GAGGAAAUGAGUCUCAACCAGAAAGCCAGGAAGACCCUCGGGAAGUACUUAAAAAAACAUUGGAAUUCUGCUUAUCUAGGGAGAAUCUUGCUAGCGACAUGUACCUUAUAUCCCAGAUGG | 0.321 ratio |
| UACUUCUGGAUUCCAGGAAAAAUUCUUAUAACUAAAAUCAAUAUGUUUUAAAAGUCACCAUAUAGCUUCUUACUAGUUAUCUUUUAAAGACUGUGGUGGUCUUAAAAGGGAACAAAAGCU | 3.19 ratio |
| CUUUGUGGGCAGCGAGACCAUGCCUCCAACAUCUACAAGGUGGAGGGCGGCUGCAUCACCAAGUUGGAGACCUUCAUCCAGGAGCACCUGAGGGUCAUUGGGGCUGUGGGGAUCGGCAUU | 0.107 ratio |
| AUCUAAGAUCCUUCAGCGCCCAGUCCUGUGAUCUCCCUUGGCUAAUAACGAACUGUAAGGAUGCCAGCAGCUCAUGAAGAAAGGGAGACUUCCAAAAGAGCCUGCGUUGUUUGAUUCAGC | 0.116 ratio |
| UACCUGGACAAAGCACCUCCACCGGGCCUGCCGGUUGAGACCAUUAAGGAUCUAAUGCGUCAGUUUCUAAGCGGCCUGGAUUUUCUUCAUGCAAACUGCAUUGUUCACCGGGACCUGAAG | 0.204 ratio |
| GAAAUGGAAGAUGCACACACAGCUGUUGUAGGUAUUCCUCACGGCUUGGAAGACUGGUCAUUUUUUGCAGUUUAUGAUGGUCAUGCUGGAUCCCGAGUGGCAAAUUACUGCUCAACACAU | 0.228 ratio |
